Measurements pooled from the literature.
Each numbered part is a random draw from the data of one study; scales do not carry over between parts. “And” joins repeats or separate records; there may be more than shown.
Sequence of UniProt Q9NYL2 (whole entry, looked up): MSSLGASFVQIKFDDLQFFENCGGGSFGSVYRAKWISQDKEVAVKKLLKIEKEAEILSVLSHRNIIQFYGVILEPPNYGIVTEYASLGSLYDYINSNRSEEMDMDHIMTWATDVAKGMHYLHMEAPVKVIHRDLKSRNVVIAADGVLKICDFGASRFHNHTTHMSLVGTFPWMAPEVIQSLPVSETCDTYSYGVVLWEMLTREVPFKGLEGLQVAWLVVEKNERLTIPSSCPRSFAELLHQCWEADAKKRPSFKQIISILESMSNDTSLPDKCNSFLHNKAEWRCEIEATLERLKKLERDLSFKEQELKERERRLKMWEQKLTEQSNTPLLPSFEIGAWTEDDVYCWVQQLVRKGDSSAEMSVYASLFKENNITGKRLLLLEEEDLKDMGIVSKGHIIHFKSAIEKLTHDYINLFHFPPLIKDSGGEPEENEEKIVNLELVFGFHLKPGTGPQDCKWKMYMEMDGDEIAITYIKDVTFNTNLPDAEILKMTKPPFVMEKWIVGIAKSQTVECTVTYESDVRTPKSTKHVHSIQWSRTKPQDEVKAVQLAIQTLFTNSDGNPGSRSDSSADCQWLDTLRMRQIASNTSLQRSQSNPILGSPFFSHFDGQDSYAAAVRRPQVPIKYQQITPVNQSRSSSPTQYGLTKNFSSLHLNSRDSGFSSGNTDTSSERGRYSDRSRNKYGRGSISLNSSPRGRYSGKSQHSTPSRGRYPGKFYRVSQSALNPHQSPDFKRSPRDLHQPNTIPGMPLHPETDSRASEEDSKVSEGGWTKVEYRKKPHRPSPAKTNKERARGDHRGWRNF
Sequence of UniProt Q86UE8 (whole entry, looked up): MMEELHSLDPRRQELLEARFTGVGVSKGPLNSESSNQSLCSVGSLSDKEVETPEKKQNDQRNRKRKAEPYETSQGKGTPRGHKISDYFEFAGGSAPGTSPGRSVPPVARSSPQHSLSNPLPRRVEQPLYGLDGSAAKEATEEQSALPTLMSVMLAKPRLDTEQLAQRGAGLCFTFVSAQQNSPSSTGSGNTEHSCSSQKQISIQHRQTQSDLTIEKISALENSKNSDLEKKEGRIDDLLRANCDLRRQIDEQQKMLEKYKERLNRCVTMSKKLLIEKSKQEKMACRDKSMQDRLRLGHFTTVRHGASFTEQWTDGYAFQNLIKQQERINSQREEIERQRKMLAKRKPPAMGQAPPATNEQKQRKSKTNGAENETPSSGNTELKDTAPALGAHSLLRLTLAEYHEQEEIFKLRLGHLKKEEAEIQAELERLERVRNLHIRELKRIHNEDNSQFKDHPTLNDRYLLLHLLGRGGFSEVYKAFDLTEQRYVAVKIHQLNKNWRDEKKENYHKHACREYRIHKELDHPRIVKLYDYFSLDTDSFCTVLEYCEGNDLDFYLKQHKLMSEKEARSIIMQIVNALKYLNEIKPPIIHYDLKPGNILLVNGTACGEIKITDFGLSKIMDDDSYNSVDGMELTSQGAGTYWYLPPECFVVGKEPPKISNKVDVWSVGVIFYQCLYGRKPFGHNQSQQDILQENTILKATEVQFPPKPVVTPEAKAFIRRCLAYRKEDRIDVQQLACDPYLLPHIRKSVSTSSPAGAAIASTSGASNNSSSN
Sequence of UniProt P54762 (whole entry, looked up): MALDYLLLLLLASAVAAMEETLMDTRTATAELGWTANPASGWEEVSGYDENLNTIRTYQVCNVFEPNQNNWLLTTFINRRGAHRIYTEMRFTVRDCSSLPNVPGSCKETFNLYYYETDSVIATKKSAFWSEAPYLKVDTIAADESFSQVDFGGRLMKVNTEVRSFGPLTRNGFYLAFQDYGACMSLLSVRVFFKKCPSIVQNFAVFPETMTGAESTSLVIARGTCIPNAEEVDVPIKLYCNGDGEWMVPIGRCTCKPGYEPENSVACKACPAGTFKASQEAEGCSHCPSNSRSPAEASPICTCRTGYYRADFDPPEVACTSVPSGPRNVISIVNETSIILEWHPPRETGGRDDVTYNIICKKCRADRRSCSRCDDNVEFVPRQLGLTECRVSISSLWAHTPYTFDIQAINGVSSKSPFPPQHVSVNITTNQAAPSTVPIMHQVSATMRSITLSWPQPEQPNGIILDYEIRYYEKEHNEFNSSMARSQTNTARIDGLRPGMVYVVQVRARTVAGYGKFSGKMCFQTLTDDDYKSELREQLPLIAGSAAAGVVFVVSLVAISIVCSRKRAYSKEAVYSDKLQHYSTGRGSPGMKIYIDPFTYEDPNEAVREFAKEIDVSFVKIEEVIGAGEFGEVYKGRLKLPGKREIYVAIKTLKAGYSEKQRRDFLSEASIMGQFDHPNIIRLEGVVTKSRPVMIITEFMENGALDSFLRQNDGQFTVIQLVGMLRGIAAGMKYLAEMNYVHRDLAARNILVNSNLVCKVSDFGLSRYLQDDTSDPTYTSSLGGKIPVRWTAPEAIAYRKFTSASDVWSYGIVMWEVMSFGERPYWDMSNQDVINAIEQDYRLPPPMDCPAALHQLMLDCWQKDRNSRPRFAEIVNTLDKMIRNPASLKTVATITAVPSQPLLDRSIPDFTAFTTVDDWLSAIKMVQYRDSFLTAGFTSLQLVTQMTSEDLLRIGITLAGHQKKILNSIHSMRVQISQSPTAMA
Sequence of UniProt Q8NI60 (whole entry, looked up): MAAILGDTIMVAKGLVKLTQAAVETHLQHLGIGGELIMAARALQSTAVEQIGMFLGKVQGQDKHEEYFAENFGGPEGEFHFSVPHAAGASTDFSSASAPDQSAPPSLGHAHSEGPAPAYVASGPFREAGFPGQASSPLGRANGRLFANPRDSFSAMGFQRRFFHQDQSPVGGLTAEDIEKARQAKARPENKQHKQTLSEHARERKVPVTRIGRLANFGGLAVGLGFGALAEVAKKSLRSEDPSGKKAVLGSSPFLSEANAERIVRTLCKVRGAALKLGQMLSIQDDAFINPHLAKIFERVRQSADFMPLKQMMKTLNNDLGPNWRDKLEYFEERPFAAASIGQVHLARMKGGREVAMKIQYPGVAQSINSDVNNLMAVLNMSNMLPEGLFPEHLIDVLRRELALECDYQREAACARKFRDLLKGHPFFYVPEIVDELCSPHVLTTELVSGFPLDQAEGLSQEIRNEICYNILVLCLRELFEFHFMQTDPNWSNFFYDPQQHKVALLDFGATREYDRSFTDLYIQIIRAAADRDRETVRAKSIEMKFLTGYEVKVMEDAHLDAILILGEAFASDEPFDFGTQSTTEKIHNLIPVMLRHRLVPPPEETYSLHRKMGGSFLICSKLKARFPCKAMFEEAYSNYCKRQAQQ
Sequence of UniProt Q9UEE5 (whole entry, looked up): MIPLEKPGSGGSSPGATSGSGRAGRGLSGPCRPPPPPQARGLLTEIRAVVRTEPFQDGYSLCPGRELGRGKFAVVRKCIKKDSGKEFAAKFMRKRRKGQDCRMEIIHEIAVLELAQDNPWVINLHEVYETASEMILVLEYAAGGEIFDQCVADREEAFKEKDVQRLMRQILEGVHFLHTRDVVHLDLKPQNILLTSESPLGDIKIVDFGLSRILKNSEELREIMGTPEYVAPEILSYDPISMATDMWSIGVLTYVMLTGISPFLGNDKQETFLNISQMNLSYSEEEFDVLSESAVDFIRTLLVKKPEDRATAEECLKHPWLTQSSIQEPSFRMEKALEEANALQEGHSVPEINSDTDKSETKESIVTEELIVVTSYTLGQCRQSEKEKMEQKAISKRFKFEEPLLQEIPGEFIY
Sequence of UniProt P51955 (whole entry, looked up): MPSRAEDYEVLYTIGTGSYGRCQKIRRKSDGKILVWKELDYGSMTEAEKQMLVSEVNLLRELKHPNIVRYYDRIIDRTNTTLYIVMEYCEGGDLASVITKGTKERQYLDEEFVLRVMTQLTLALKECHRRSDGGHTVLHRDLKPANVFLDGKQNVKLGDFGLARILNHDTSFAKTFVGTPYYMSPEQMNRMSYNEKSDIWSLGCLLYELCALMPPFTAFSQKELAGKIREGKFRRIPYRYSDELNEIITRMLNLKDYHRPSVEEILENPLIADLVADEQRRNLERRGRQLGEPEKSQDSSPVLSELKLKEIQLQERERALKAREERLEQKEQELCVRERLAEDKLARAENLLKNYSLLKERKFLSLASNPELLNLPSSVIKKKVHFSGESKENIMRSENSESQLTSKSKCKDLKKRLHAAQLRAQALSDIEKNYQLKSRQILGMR

Series 1
SMILES: CCOCCn1cc(C(=O)Nc2ccc(-n3nc(-c4cccnc4)cc3C(F)(F)F)cn2)ccc1=O
Effect on: cell-free assay
Method: competition with immobilised ligand
Concentration: 1 µM
Endpoint: remaining binding
ALK (Homo sapiens, UniProt Q9UM73, L1196M): 73%
MAP3K20 (Homo sapiens, UniProt Q9NYL2): 73%
COQ8A (Homo sapiens, UniProt Q8NI60): 90%
NEK2 (Homo sapiens, UniProt P51955): 100%
FLT3 (Homo sapiens, UniProt P36888, F691L/ITD): 56%
MAK (Homo sapiens, UniProt P20794): 89%
CAMK2G (Homo sapiens, UniProt Q13555): 100%
RIOK1 (Homo sapiens, UniProt Q9BRS2): 100%
EIF2AK1 (Homo sapiens, UniProt Q9BQI3): 84%
SLK (Homo sapiens, UniProt Q9H2G2): 100%
ULK2 (Homo sapiens, UniProt Q8IYT8): 74%
TLK2 (Homo sapiens, UniProt Q86UE8): 100%
CAMK1G (Homo sapiens, UniProt Q96NX5): 100%
NTRK3 (Homo sapiens, UniProt Q16288): 100%

Series 2
SMILES: CC(C)(C)c1nc2c3cc[nH]c(=O)c3c3cc(F)ccc3c2[nH]1
Effect on: enzyme activity
Action: inhibitor
Concentration: 0.5 µM
Relative to: control
Endpoint: remaining activity
EPHA4 (Homo sapiens, UniProt P54764): 101%
SRMS (Homo sapiens, UniProt Q9H3Y6): 98.7%
MAP4K4 (Homo sapiens, UniProt O95819): 38.4%
EPHB1 (Homo sapiens, UniProt P54762): 94.9%
STK17A (Homo sapiens, UniProt Q9UEE5): 6.42%
DYRK3 (Homo sapiens, UniProt O43781): 105%
MAPKAPK3 (Homo sapiens, UniProt Q16644): 94.4%
TSSK2 (Homo sapiens, UniProt Q96PF2): 92.5%
CAMK2B (Homo sapiens, UniProt Q13554): 73.4%
Cyclin-dependent kinase 4, with cyclin D3 (CDK4, Homo sapiens, UniProt P11802): 95.2%

Series 3
Structure (SMILES): CC(C)n1cnc(-c2ccc(F)cc2)c1-c1ncc(C(=O)Nc2ccc(N3CCN(C)CC3)cc2)[nH]1
Method: phase 2a trial
Species: idiopathic pulmonary fibrosis patients
Endpoint: patients with gastritis
dose not given, adverse event grade 4, all dose arms pooled: 0%
60 mg once daily, adverse event grade 3: 0%
60 mg once daily, adverse event grade 2: 0%
dose not given, adverse event grade 3, all dose arms pooled: 0%
30 mg once daily, adverse event grade 5: 0%
30 mg once daily, adverse event grade 4: 0%
dose not given, adverse event grade 1, all dose arms pooled: 0%

Series 4
Compound: CC(C)(C(=O)O)[C@H](NC(=O)Cc1cccc(I)c1)c1ccc2oc(=O)[nH]c2c1
Method: Incucyte 3D growth
Concentration: 30 µM
Direction: higher = more growth
Endpoint: spheroid area
A375; 42.52 h: 2.56e+07 a.u. and 1.92e+07 a.u. and 2.2e+07 a.u. and 2e+07 a.u. and 1.97e+07 a.u.
A375; 456.52 h: 1.42e+08 a.u. and 1.57e+08 a.u. and 1.7e+08 a.u. and 1.55e+08 a.u. and 1.64e+08 a.u. and 1.79e+08 a.u.
A375; 120 h: 7.29e+07 a.u. and 6.11e+07 a.u. and 6.8e+07 a.u. and 8.22e+07 a.u. and 7.89e+07 a.u. and 6.73e+07 a.u.
NCI-H1437; 216 h: 5.76e+07 a.u. and 6.15e+07 a.u. and 7.87e+07 a.u. and 7.81e+07 a.u. and 8.6e+07 a.u. and 3.6e+07 a.u.
NCI-H358; 72 h: 3.93e+06 a.u. and 4.21e+06 a.u. and 3.35e+06 a.u. and 3.28e+06 a.u. and 3.27e+06 a.u. and 3.97e+06 a.u.
MEL-JUSO; 288.52 h: 2.56e+07 a.u. and 2.24e+07 a.u. and 1.98e+07 a.u. and 2.33e+07 a.u. and 4.06e+07 a.u. and 2.29e+07 a.u.
PC-9; 138 h: 1.03e+09 a.u. and 1.07e+09 a.u. and 1.06e+09 a.u. and 1e+09 a.u. and 1.09e+09 a.u.

For quick reference, copied from above (series 1):
NEK2 (Homo sapiens, UniProt P51955): 100%
FLT3 (Homo sapiens, UniProt P36888, F691L/ITD): 56%
MAK (Homo sapiens, UniProt P20794): 89%
